Measurements gathered from unrelated publications.
Several values in a cell are separate wells, animals, samples, runs or records. Numbers after ± are the reported error.

Compound | test | test system | setting | scale | endpoint | result
CC(=O)c1c(C)c2cnc(Nc3ccc(N4CCNCC4)cn3)nc2n(C2CCCC2)c1=O |  | C57BL/6 mice, blood | 25 mg/kg, P25, dosed P10 to P24 |  | white blood cell count | 3.6 ± 1.3 10⁹/liter
CCN(CC)CCOc1ccc(-c2nnn(Cc3ccc(OC)cc3)c2N)cc1 |  | Caco-2 |  |  | Papp A→B | 2.61 ×10⁻⁶ cm/s
N#[11C]c1ccc(-c2csc(NN=C3CCCC3)n2)cc1 |  | C57BL/6 mice, male, bone | intravenous, 3 MBq, 15 min |  | radioactivity uptake | 2.08 ± 0.31 %ID/g
CC(C)[C@@H]1NC(=O)CNC(=O)[C@H](CC(N)=O)NC(=O)[C@H](CCCNC(=N)N)NC(=O)[C@H](Cc2ccc(O)cc2)NC(=O)[C@H](C(C)C)NC(=O)[C@@H](NC(=O)[C@@H](NC(=O)[C@H](CC(N)=O)NC(=O)[C@H](Cc2c[nH]c3ccccc23)NC(=O)[C@H](C)NC(=O)[C@H](Cc2ccccc2)NC(=O)CNC(=O)[C@H](CCCCN)NC(=O)[C@H](Cc2ccccc2)NC(=O)[C@H](Cc2ccccc2)NC(=O)[C@H](CCCCN)NC(=O)OCC2c3ccccc3-c3ccccc32)C(C)C)CSSC[C@@H](C(=O)N[C@@H](Cc2c[nH]cn2)C(=O)N[C@@H](CCCNC(=N)N)C(=O)N[C@@H](CCCNC(=N)N)C(=O)N[C@@H](C)C(=O)N[C@@H](CC(N)=O)C(N)=O)NC(=O)[C@H](C(C)C)NC(=O)[C@H](CCCNC(=N)N)NC1=O |  | ICR mouse, blood | intramammary, 5 mg/kg, day 5, 3 d dosing |  | globulin | 18.65 ± 0.05 g/L
CN1Cc2cc(Cl)ccc2-n2c(nnc2C2CCN(c3cccc([18F])n3)CC2)C1 |  | C57BL/6 mouse male, brain | intravenous, 3.7 MBq, 30 min |  | tissue uptake | 0.4 ± 0.01 %ID/g
CC1(C)C(=O)N(c2ccc(C#N)c(C(F)(F)F)c2)C(=S)N1c1ccc(C(N)=O)c(F)c1 |  | human, male, plasma | oral, 40 mg, soft capsule |  | Cmax | 118 ± 22.1 ng/mL
Cc1cc(-c2ccc3ccccc3c2)nnc1NCCN1CCN(C)CC1 | metabolic stability | human, liver microsomes | 20 min |  | compound remaining | 103%
CC[C@H](C)[C@H](NC(=O)[C@H](C)NC(=O)[C@H](CCCCN)NC(=O)[C@H](CCCCN)NC(=O)[C@@H](N)CCCNC(=N)N)C(=O)N[C@@H](CCCCN)C(=O)N[C@@H](CC(C)C)C(=O)N[C@H](C(=O)N[C@@H](CCCCN)C(=O)N[C@@H](CCCCN)C(=O)N[C@@H](CC(C)C)C(=O)N[C@H](C(=O)N[C@@H](CCCCN)C(=O)N[C@@H](CCCCN)C(=O)N[C@@H](CC(C)C)C(=O)N[C@@H](CCCCN)C(=O)N[C@@H](CCCCN)C(=O)N[C@@H](C)C(=O)N[C@@H](CC(C)C)C(=O)N[C@@H](CCCCN)C(=O)O)C(C)C)C(C)C |  | human red blood cells | 2 mg/L, 1 h, mean of replicates |  | hemolysis | 1.27%
CN[C@H](CC(C)C)C(=O)N[C@H]1C(=O)N[C@@H](CC(N)=O)C(=O)N[C@H]2C(=N)N[C@H]3C(=O)N[C@H](C(=O)N[C@H](C(=O)NCCCNC(=N)N)c4cc(O)cc(O)c4-c4cc3ccc4O)[C@H](O)c3ccc(c(Cl)c3)Oc3cc2cc(c3O[C@@H]2O[C@H](CO)[C@@H](O)[C@H](O)[C@H]2O[C@H]2C[C@](C)(NCc3ccc(-c4ccc(Cl)cc4)cc3)[C@H](O)[C@H](C)O2)Oc2ccc(cc2Cl)[C@H]1O |  | mouse | intravenous, 25 mg/kg |  | AUC | 316 µM·h
CC(=O)NCCCC[C@@H]1NC(=O)[C@H](Cc2c[nH]c3c(C)cccc23)NC(=O)[C@H]([C@@H](C)O)NC(=O)[C@H](CC(N)=O)NC(=O)[C@@H](NC(C)=O)C(C)(C)SSC(C)(C)[C@@H](C(=O)N[C@@H](Cc2ccc(OCCN)cc2)C(=O)N[C@@H](Cc2ccc3ccccc3c2)C(=O)NC2(C(=O)N[C@@H](CCC(=O)O)C(=O)N[C@@H](CC(N)=O)C(=O)N[C@@H](Cc3cccnc3)C(=O)N(C)CC(N)=O)CCOCC2)NC1=O | equilibrium dialysis | human, plasma | 1 µM |  | unbound fraction | 50.3 ± 5.4%
COc1cnc2cccc(N3CCc4c(cc(Cn5ccnc5)cc4-c4cn(C)nc4C(F)(F)F)C3=O)c2c1 |  | BALB/c nude mice, MV4-11 xenograft | intraperitoneal, 75 mg/kg, day 10 |  | body weight | 23.2 g and 23.8 g and 22.4 g and 24.3 g and 23.6 g and 23 g and 24.8 g and 23.4 g
CC[C@H](C)[C@H](NC(=O)[C@H](CCCCN)NC(=O)CNC(=O)[C@H](CC(C)C)NC(=O)[C@H](Cc1ccccc1)NC(=O)[C@H](CCCCN)NC(=O)[C@H](CO)NC(=O)[C@H](Cc1ccccc1)NC(=O)[C@H](Cc1c[nH]c2ccccc12)NC(=O)[C@H](CCC(N)=O)NC(=O)[C@@H](NC(=O)[C@H](Cc1ccccc1)NC(=O)CCCCCNC(=O)CN1CCN(CC(=O)O)CCN(CC(=O)O)CCN(CC(=O)O)CC1)C(C)C)C(=O)N[C@@H](CCC(=O)O)C(=O)N1CCC[C@H]1C(=O)N[C@@H](CC(=O)O)C(=O)N[C@H](C(=O)N[C@@H](CO)C(=O)N[C@@H](CCC(N)=O)C(=O)N[C@H](C(=O)N[C@@H](CCC(N)=O)C(=O)N[C@@H](CC(=O)O)C(=O)N1CCC[C@H]1C(=O)N[C@@H](CC(N)=O)C(=O)N[C@@H](CC(=O)O)C(=O)N[C@@H](CCC(N)=O)C(=O)N[C@@H](Cc1ccc(O)cc1)C(=O)N[C@@H](CCC(=O)O)C(=O)N1CCC[C@H]1C(=O)N[C@@H](Cc1ccccc1)C(=O)O)C(C)C)C(C)C [copper-64 labelled] |  | BALB/c mice, male, CT26 tumour-bearing, kidneys | 2 h, vehicle-treated |  | tissue uptake | 34.5 ± 4.9 %ID/g
O=C1NC2(CC2)COc2ncc(F)cc2[C@H]2COCCN2c2ccn3ncc1c3n2 |  | Sprague-Dawley rat, female, blood | oral, 2.5 mg/kg/day, 4 weeks, end of treatment, subacute toxicity |  | mean corpuscular haemoglobin | 19.7 ± 0.8 pg
C=Cc1c(C)c2cc3nc(c(CC(=O)[O-])c4[n-]c(cc5nc(cc1[n-]2)C(C)=C5CC)c(C)c4C(=O)[O-])C(CCC(=O)[O-])C3C.[Cu+2].[Na+].[Na+].[Na+] (centres unmarked) |  | Wistar rat, female | oral, 500 mg/kg daily, 28 days |  | serum ALT | 33.5 ± 11 U/L
CSCC[C@H](NC(=O)CNC(=O)[C@H](CCCCN)NC(=O)[C@H](CC(C)C)NC(=O)[C@@H]1CCCN1C(=O)[C@H](CO)NC(=O)[C@H](Cc1c[nH]cn1)NC(=O)[C@H](Cc1c[nH]c2ccccc12)NC(=O)[C@H](CCCNC(=N)N)NC(=O)[C@H](CC(C)C)NC(=O)[C@H](CCCNC(=N)N)NC(=O)[C@H](Cc1c[nH]c2ccccc12)NC(=O)[C@H](CS)NC(=O)CCCCCNC(=O)CN1CCN(CC(=O)O)CCN(CC(=O)O)CCN(CC(=O)O)CC1)C(=O)O [copper-64 labelled] | ex vivo biodistribution | C57BL/6J mice bearing B16-F10 tumours, liver | intravenous, 1.85 MBq, 2 h |  | tissue uptake | 20.7 %ID/g
CSCC[C@H](N)C(=O)N[C@@H](C)C(=O)N[C@@H](Cc1c[nH]c2ccccc12)C(=O)N[C@@H](Cc1c[nH]cn1)C(=O)N[C@@H](CC(=O)O)C(=O)N[C@@H](CC(=O)O)C(=O)N[C@@H](CCC(=O)O)C(=O)N[C@@H](CCC(=O)O)C(=O)N[C@@H](Cc1ccccc1)C(=O)N[C@@H](C)C(=O)N[C@@H](CCCNC(=N)N)C(=O)N[C@@H](CCCNC(=N)N)C(=O)N[C@@H](CCCNC(=N)N)C(=O)N[C@@H](CCCNC(=N)N)C(=O)NCCCCCC(=O)NCCCCC(NC(=O)CCCCCNC(=O)[C@H](CCCNC(=N)N)NC(=O)[C@H](CCCNC(=N)N)NC(=O)[C@H](CCCNC(=N)N)NC(=O)[C@H](CCCNC(=N)N)NC(=O)[C@H](C)NC(=O)[C@H](Cc1ccccc1)NC(=O)[C@H](CCC(=O)O)NC(=O)[C@H](CCC(=O)O)NC(=O)[C@H](CC(=O)O)NC(=O)[C@H](CC(=O)O)NC(=O)[C@H](Cc1c[nH]cn1)NC(=O)[C@H](Cc1c[nH]c2ccccc12)NC(=O)[C@H](C)NC(=O)[C@@H](N)CCSC)C(=O)NCCCCC(NC(=O)C(CCCCNC(=O)CCCCCNC(=O)[C@H](CCCNC(=N)N)NC(=O)[C@H](CCCNC(=N)N)NC(=O)[C@H](CCCNC(=N)N)NC(=O)[C@H](CCCNC(=N)N)NC(=O)[C@H](C)NC(=O)[C@H](Cc1ccccc1)NC(=O)[C@H](CCC(=O)O)NC(=O)[C@H](CCC(=O)O)NC(=O)[C@H](CC(=O)O)NC(=O)[C@H](CC(=O)O)NC(=O)[C@H](Cc1c[nH]cn1)NC(=O)[C@H](Cc1c[nH]c2ccccc12)NC(=O)[C@H](C)NC(=O)[C@@H](N)CCSC)NC(=O)CCCCCNC(=O)[C@H](CCCNC(=N)N)NC(=O)[C@H](CCCNC(=N)N)NC(=O)[C@H](CCCNC(=N)N)NC(=O)[C@H](CCCNC(=N)N)NC(=O)[C@H](C)NC(=O)[C@H](Cc1ccccc1)NC(=O)[C@H](CCC(=O)O)NC(=O)[C@H](CCC(=O)O)NC(=O)[C@H](CC(=O)O)NC(=O)[C@H](CC(=O)O)NC(=O)[C@H](Cc1c[nH]cn1)NC(=O)[C@H](Cc1c[nH]c2ccccc12)NC(=O)[C@H](C)NC(=O)[C@@H](N)CCSC)C(N)=O (some centres unmarked) |  | C57BL/6 mouse female, spine | dose not given, 3 h | reference: total | tissue distribution | 6.74%
NC1CCN(C(=O)Oc2ccc(C3CCCC4(C3)OOC3(O4)C4CC5CC(C4)CC3C5)cc2)CC1 (racemic) |  | male ICR mouse, plasma | intravenous, 10 mg/kg |  | C0 | 2270 ng/mL
C#Cc1c(F)ccc2cc(O)cc(-c3ncc4c(N5CC6CCC(C5)N6C(=O)OCOC(=O)CCC)nc(OC[C@@]56CCCN5C[C@H](F)C6)nc4c3F)c12 | measured: prodrug | mouse whole blood | 1 µM |  | t1/2 | 1.81 min
COCCN(C(=O)[C@H](C)N(Cc1ccccc1)C(C)=O)[C@@H](C)C(=O)N(Cc1c[nH]c2cc(Cl)ccc12)[C@@H](C)C(=O)N(CCOC)[C@@H](C)C(=O)N(CCC(C)(C)C)[C@@H](C)C(N)=O |  | PAMPA | 10 µM, 4 h, pH 7.4 |  | Papp | 0.22 ×10⁻⁶ cm/s
N=C(N)NCCC[C@H](NC(=O)[C@H](CCCNC(=N)N)NC(=O)[C@H](CCCNC(=N)N)NC(=O)[C@H](CCC(N)=O)NC(=O)[C@H](CCCNC(=N)N)NC(=O)[C@H](CCCNC(=N)N)NC(=O)[C@H](CCCCN)NC(=O)[C@H](CCCCN)NC(=O)[C@H](CCCNC(=N)N)NC(=O)CNC(=O)[C@H](Cc1ccc(O)cc1)NC(=O)[C@H](Cc1ccccc1)NC(=O)[C@H](Cc1ccccc1)NC(=O)[C@H](Cc1ccccc1)NC(=O)OCC1c2ccccc2-c2ccccc21)C(=O)O |  | C57BL/6 mice | intraperitoneal, 10 mg/kg, 48 h | direction not given | health score | 5
